# Experimental data pooled from the literature.
# Lines come from different studies, so protocols differ. “And” joins repeats or separate records; there may be more than shown.
# Observed: DPPH scavenging
SMILES,technique,time,IC50
COc1cc(CN2CCN(c3ccc(OC(F)(F)F)cc3)CC2)c2cc3[n+](cc2c1O)CCc1cc2c(cc1-3)OCO2,absorbance,30 min,21.1 µg/mL
Cc1ccc(-c2nc3cc(F)ccc3[nH]2)o1,absorbance,,1.36 µM
CCCCn1cc(C(=O)O)c(=O)c2cc(F)c(Nc3cc(OC)c(OC)c(OC)c3)c(N)c21,absorbance,30 min,229 µM
COc1cc(CN2CCN(c3ccccc3Cl)CC2)c2cc3[n+](cc2c1O)CCc1cc2c(cc1-3)OCO2,absorbance,30 min,16.9 µg/mL
Cc1ccc(N(O)/N=N/c2ccc(S(=O)(=O)Nc3nccs3)cc2)cc1,,,859 µg/mL and 858 µg/mL
CCCCn1cc(C(=O)O)c(=O)c2cc(F)c(Nc3ccc(OC)cc3OC)c(N)c21,absorbance,30 min,251 µM
CCCCSc1nnc(-c2cc([N+](=O)[O-])ccc2Cl)o1,,,44.6 µM
CC(=O)C1=C(C)NC(=O)NC1c1ccc(F)cc1F (stereo not drawn),,,35.6 µM
Sc1nnc(-c2ccccc2Cl)o1,,,74.1 µM
CC(=O)C1=C(C)NC(=O)NC1c1ccc(Br)cc1 (stereo not drawn),,,149 µM
Cc1nnc2c3c(-c4ccc5ccccc5n4)cc(-c4ccccc4)nc3n3c(C)nnc3n12,absorbance,30 min,120 µM
CC(=O)C1=C(C)NC(=O)NC1c1ccc([N+](=O)[O-])cc1 (stereo not drawn),,,136 µM
N#C/C(=C\c1cn(-c2ccccc2)nc1-c1cccc(Cl)c1)c1nc2ccccc2[nH]1,absorbance,,22 µM
C[C@@H]1O[C@@H](OC[C@H]2O[C@@H](Oc3c(-c4ccc(O)cc4)oc4cc(O[C@@H]5O[C@H](CO)[C@@H](O)[C@H](O)[C@H]5O)cc(O)c4c3=O)[C@H](O)[C@@H](O)[C@@H]2O)[C@H](O)[C@H](O)[C@H]1O,absorbance,,398 µM
O=c1cc(-c2ccc(O)c(O)c2)oc2cc(O[C@@H]3O[C@H](CO)[C@@H](O)[C@H](O)[C@H]3O)cc(O)c12,absorbance,,36.4 µg/mL
N#C/C(=C\c1cn(-c2ccccc2)nc1-c1ccccc1)c1nc2ccccc2[nH]1,absorbance,,34.8 µM
Nc1ccc(-c2nnc(S)o2)cc1,,,47 µM
CCCCn1cc(C(=O)O)c(=O)c2cc(F)c(Nc3cc(OC)c(OC)c(OC)c3)c([N+](=O)[O-])c21,absorbance,30 min,641 µM
CC(=O)C1=C(C)NC(=O)NC1c1cccc(Br)c1 (stereo not drawn),,,233 µM
N#C/C(=C\c1cn(-c2ccccc2)nc1-c1ccc(F)cc1)c1nc2ccccc2[nH]1,absorbance,,284 µM
Cc1cc2nc(-c3ccco3)[nH]c2cc1C,absorbance,,1.5 µM
CCCCCCCCCCCCCCOc1c(O)cc(C(=O)O[C@@H]2Cc3c(O)cc(O)cc3O[C@@H]2c2cc(O)c(O)c(O)c2)cc1O,absorbance,1 h,9.73 µM
COc1cc(/C=C/C(=O)O)ccc1O,absorbance,30 min,15.6 µg/mL
COc1cc(O)c2c(=O)c(O[C@@H]3O[C@H](CO)[C@@H](O)[C@H](O)[C@H]3O[C@@H]3O[C@H](CO)[C@@H](O)[C@H](O)[C@H]3O)c(-c3ccc(O)cc3)oc2c1,absorbance,,468 µM
CCCCn1cc(C(=O)O)c(=O)c2cc(F)c3c(nnn3-c3ccc(OC)cc3)c21,absorbance,30 min,193 µM
N#C/C(=C\c1cn(-c2ccccc2)nc1-c1ccc(Br)cc1)c1nc2ccccc2[nH]1,absorbance,,10.6 µM
C[C@@H]1O[C@@H](OC(=O)/C=C/c2ccc(O)c(O)c2)[C@H](OC(=O)/C=C/c2ccc(O)c(O)c2)[C@H](O)[C@H]1O,,30 min,18.2 µg/mL
C=C1CC(OC(=O)C(C)(O)CCl)C2C(=C)C(=O)OC2C2C1CC(O)C2(O)CCl (stereo not drawn),absorbance,,~121 µg/mL
CCCCSc1nnc(-c2ccc(C(C)(C)C)cc2)o1,,,71.6 µM
CCCCn1cc(C(=O)O)c(=O)c2cc(F)c(Nc3ccc(OC)cc3)c(N)c21,absorbance,30 min,277 µM
COc1cc(CN2CCN(c3ccc([N+](=O)[O-])cc3)CC2)c2cc3[n+](cc2c1O)CCc1cc2c(cc1-3)OCO2,absorbance,30 min,15.1 µg/mL
CCCCSc1nnc(-c2ccccc2Cl)o1,,,68.2 µM
N#C/C(=C\c1cn(-c2ccccc2)nc1-c1ccc(Cl)cc1)c1nc2ccccc2[nH]1,absorbance,,82.4 µM
CC(=O)C1=C(C)NC(=O)NC1c1ccccc1 (stereo not drawn),,,234 µM
Fc1ccc2[nH]c(-c3ccco3)nc2c1,absorbance,,1.4 µM
Sc1nnc(-c2ccccc2)o1,,,90 µM
CC(=O)C1=C(C)NC(=O)NC1c1ccc(F)cc1 (stereo not drawn),,,49.4 µM
CCCCn1cc(C(=O)O)c(=O)c2cc(F)c3c(nnn3-c3cccc(OC)c3)c21,absorbance,30 min,1720 µM
Cc1ccc(-c2nc3ccccc3[nH]2)o1,absorbance,,1.43 µM
Oc1c(Br)ccc2cccnc12,absorbance,30 min,597 µM
CC(=NNC(=S)NN=C(C(=NO)c1ccccc1)c1ccccc1)c1ccccc1,absorbance,30 min,11.6 µM
COc1cc(CN2CCN(c3ccccc3[N+](=O)[O-])CC2)c2cc3[n+](cc2c1O)CCc1cc2c(cc1-3)OCO2,absorbance,30 min,16.9 µg/mL

# A few entries again:
SMILES,technique,time,IC50
COc1cc(CN2CCN(c3ccccc3Cl)CC2)c2cc3[n+](cc2c1O)CCc1cc2c(cc1-3)OCO2,absorbance,30 min,16.9 µg/mL
Sc1nnc(-c2ccccc2Cl)o1,,,74.1 µM
CC(=O)C1=C(C)NC(=O)NC1c1ccc(F)cc1 (stereo not drawn),,,49.4 µM
CCCCSc1nnc(-c2cc([N+](=O)[O-])ccc2Cl)o1,,,44.6 µM
CCCCn1cc(C(=O)O)c(=O)c2cc(F)c(Nc3ccc(OC)cc3)c(N)c21,absorbance,30 min,277 µM
